Measured values from different studies.
Compare with care: the assays were run in different laboratories. Values joined by “and” are separate records of one study, mostly repeats; a detail may differ. Numbers after ± are the reported error.

| SMILES | test | test system | setting | how to read | quantity | result |
| --- | --- | --- | --- | --- | --- | --- |
| N=C(N)NCCC[C@@H](NC(=O)[C@@H](N)Cc1ccccc1)C(=O)N[C@@H](Cc1ccccc1)C(=O)N[C@@H](CCCCN)C(N)=O | LC-MS | human | 5 mg, 11.83 h |  | median fraction excreted in urine | 5.47% |
| CN(C(=O)n1cnc(-c2ccc[n+]([O-])c2)c1)C1CCCCC1 |  | Wistar rat, medulla oblongata | oral, 10 mg/kg/day, 24 h, repeated 5 days |  | concentration | 8.1 ± 4.2 ng/g |
| C[C@H]1COCCN1c1nc(NCc2cccnc2C(F)(F)F)c2cccnc2n1 |  | male CD-1 mouse, femur bone marrow | oral, 1000 mg/kg twice, 48 h, group mean |  | micronucleated PCE | 0.08% |
| C=CC(=O)Nc1cc(Nc2nccc(Nc3cc(Cl)c(F)cc3C(C)(C)O)n2)c(OC)cc1N1CC[C@@H](N(C)C)C1 |  | human patients | oral, 50 mg, treatment-emergent adverse events |  | patients with fatigue | 33.3% |
| CN1CCN(S(=O)(=O)c2cc([N+](=O)[O-])ccc2N(CCOS(C)(=O)=O)CCOS(C)(=O)=O)CC1 |  | naive NOD/SCID mice, pooled blood | intraperitoneal, 25 mg/kg, week 4 |  | sodium | 158 mmol/L |
| C[C@@H](NC(=O)N1C(=O)[C@H](Cc2ccnc(N)c2)[C@H]1C(=O)O)C1CCCCC1 |  | healthy Chinese adult volunteers | continuous intravenous infusion, dose not given, 5.0 days, CTCAE 5.0, all doses |  | elevated creatine phosphokinase | 5% |
| Cn1cncc1-c1c(F)cncc1NC(=O)c1c(N)nn2cc(F)cnc12 |  | human patients | oral, 130 mg once daily |  | grade ≥3 platelet decrease incidence | 0% |
| CCS(=O)(=O)Nc1ccc(Oc2ccc(F)cc2F)c(-c2cn(C)c(=O)c3[nH]ccc23)c1 | fatal Escherichia sepsis | human, relapsed/refractory AML | oral, dose not given |  | treatment-emergent adverse events | 0% |
| O=C(Nc1ccccc1)C1CCN(C(=O)Oc2cccnc2)CC1 |  | healthy women | oral, 100 mg, 9 days |  | Psychiatric disorders adverse events | 23.1% |
| O=C1Nc2cc3[nH]nc(-c4ccncc4)c3cc2CN1Cc1ccccc1 | CTCAE v4.03 | advanced solid tumour patients | intravenous, 4.8 mg/kg, schedules 1/2 |  | patients with acneiform dermatitis | 25% |
| CCCCN1CCC(COC(=O)c2ccc(N)c(O[11CH3])c2)CC1 | PET | rhesus monkey, striatum | 60 min post injection |  | washout from peak | > 50% |
| Cc1c(COC(=O)[C@@H]2[C@H](/C=C(\Cl)C(F)(F)F)C2(C)C)cccc1-c1ccccc1 (racemic) | IVIVE scaling | human adult |  |  | hepatic intrinsic clearance | 206 L/h/kg liver |
| CCN1CCN(Cc2ccc(Nc3ncc(F)c(-c4cc(F)c5nc6n(c5c4)[C@H](C)CCC6)n3)nc2)CC1 |  | advanced solid tumour patients | dose not given, Phase Ia monotherapy |  | Thrombocytopenia incidence, any grade | 25% |
| N=C(N)NCCNC(=O)C1(Nc2ccccc2)CCN(Cc2ccccc2)CC1 |  | rat, plasma | -20 °C, 2 cycles, 6 ng/mL |  | freeze-thaw deviation | 3.6% |
| Cc1ccc(N=Nc2ccc3[nH]cc(CCN(C)C)c3c2)cc1 | light irradiation | solution | added: light 530 nm |  | trans isomer at photostationary state | 87% |
| CNC(=O)c1c(C)oc2cc(Oc3ccnc4cc(OCCN5CCOCC5)ccc34)ccc12 |  | patients, urine | dose not given, days 1 and 29 | relative to: dose | urinary excretion unchanged | < 1% |
| COc1ncccc1-c1cnn2ccc(N3CCN(C(=O)OC(C)C)CC3)nc12 |  | rat, CCI cold allodynia model, plasma | oral, 30 mg/kg, 240 min |  | free drug concentration | 92 nM |
| C=CC(=O)Nc1cc(Nc2ncc(C(=O)OC(C)C)c(-c3cn(C)c4ccccc34)n2)c(OC)cc1N(C)CCN(C)C |  | NSCLC patients, primary efficacy population | 160 mg once daily |  | fatal adverse reactions | 1.8% |
| C[C@]1(CO)Cc2ncn(-c3ccc(C#N)c(Cl)c3)c2C(=O)O1 |  | healthy Japanese adults, plasma | 80 mg once daily, after first dose, multiple dose |  | Tmax | 1 h |
| O=S(=O)(Nc1ccccc1)c1ccc(NC(=S)Nc2ccccc2)cc1 |  | female mouse, blood | oral, 5 mg/kg daily, 14 days |  | chloride level | 111 mmol/L |

| SMILES | test | test system | setting | how to read | quantity | result |
| --- | --- | --- | --- | --- | --- | --- |
| COc1ccc2nc3cc(Cl)ccc3c(Nc3cc(CN4CCCC4)c(O)c(CN4CCCC4)c3)c2n1 |  | mouse, blood | intraperitoneal, 28 mg/kg |  | basophils | 1.51% |
| CC(C)C[C@H](NC(=O)[C@H](CCCCN)NC(=O)OCC1c2ccccc2-c2ccccc21)C(=O)N[C@H](C(=O)N[C@@H](Cc1ccccc1)C(=O)N[C@@H](Cc1ccccc1)C(=O)N[C@@H](CCCCN)C(=O)NCC(=O)N[C@@H](Cc1ccccc1)C(=O)N[C@@H](C)C(=O)N[C@@H](Cc1c[nH]c2ccccc12)C(=O)N[C@@H](CC(N)=O)C(=O)N[C@H](C(=O)N[C@H]1CSSC[C@@H](C(=O)N[C@@H](Cc2c[nH]cn2)C(=O)N[C@@H](CCCNC(=N)N)C(=O)N[C@@H](CCCNC(=N)N)C(=O)N[C@@H](C)C(=O)N[C@@H](CC(N)=O)C(N)=O)NC(=O)[C@H](C(C)C)NC(=O)[C@H](CCCNC(=N)N)NC(=O)[C@H](C(C)C)NC(=O)CNC(=O)[C@H](CC(N)=O)NC(=O)[C@H](CCCNC(=N)N)NC(=O)[C@H](Cc2ccc(O)cc2)NC(=O)[C@H](C(C)C)NC1=O)C(C)C)C(C)C | HPLC | mouse mammary gland homogenate | 2560 µM, 2.00 h, 37 °C, 50 mg/mL tissue |  | remaining peptide | 90.9% and 88% |
| CN1CC[C@@H](c2c(O)cc(O)c3c(=O)cc(-c4ccc(C(F)(F)F)cc4Cl)oc23)[C@@H]1CO | measured: Lymphopenia | relapsed B-cell malignancies | oral, 200 mg, grade 3-4, intermittent dosing |  | patients with adverse event | 0% |
| COC[C@@H](CC(C)C)NC(=O)c1ccc(C)c(C)c1 |  | Hsd:ICR (CD-1) mouse, female, bone marrow | oral, 500 mg/kg, 24 h |  | micronucleated PCE per 1000 PCE | 0.5 |
| NCCCC[C@@H]1NC(=O)[C@@H](Cc2c[nH]c3ccccc23)NC(=O)[C@H](c2ccccc2)NC(=O)[C@@H]2C[C@@H](OC(=O)NCCN)CN2C(=O)[C@H](Cc2ccccc2)NC(=O)[C@H](Cc2ccc(OCc3ccccc3)cc2)NC1=O |  | healthy volunteers | subcutaneous, 1950 µg twice daily, day 5, 8.00 h |  | QTcI change from baseline | -0.4 ms |
| C[C@H]1C[C@@H](N2C(=N)N[C@](C)(c3cccc(NC(=O)c4cccc(C#N)c4)c3Cl)CC2=O)CCO1 |  | rat | 500 mg/kg, every other day |  | triglycerides change | -36% |
| CCN1[C@@H](C(=O)NC23CCC(C(=O)O)(CC2)CC3)[C@H](c2cccc(Cl)c2F)[C@]2(C(=O)Nc3cc(Cl)ccc32)C12CCCCC2 |  | patients with advanced solid tumours | oral, dose not given, all doses |  | any-grade anemia incidence | 52.4% |
| O=c1nc(NO)ccn1[C@@H]1O[C@H](CO)[C@@H](O)[C@H]1O |  | rat maternal placenta dialysate | 1000 ng/mL, 6 h, room temperature, high concentration, added: molnupiravir 250 ng/mL |  | bench-top stability | 96.9 ± 6.63% |
| C=CCNc1c(O)cc2c(O)c1C[C@@H](C)C[C@H](OC)[C@H](O)[C@@H](C)/C=C(\C)[C@H](OC(N)=O)[C@@H](OC)/C=C\C=C(/C)C(=O)N2 |  | unresectable or metastatic sarcoma | intravenous, 500 mg/m^2, grade 3-4 lab change |  | patients with AST increase | 0% |
| C=CC(=O)N1CC[C@H](n2nc(C#Cc3cc(OC)cc(OC)c3)c3c(N)ncnc32)C1 |  | patients with advanced solid tumours | oral, dose not given, Malaise, any grade, QD, added: sevelamer hydrochloride |  | adverse drug reaction incidence | 9.1% |
| CCc1ccc(CC/C=C/c2ccc3c(c2)C(=O)CC3)cc1 |  | Sprague-Dawley rat, female | oral, 120 mg/kg/day, 14 days |  | TC | 1.91 mM |
| CC(C)(c1ccc(O)cc1)c1ccc(O)cc1 | ultrafiltration | cow milk whey | 20 nM nominal in whole milk |  | final permeate concentration | 0.93 nM |
| C=CC[N+]1([C@H]2C[C@H]3[C@@H]4CC[C@H]5C[C@H](O)[C@@H](N6CCOCC6)C[C@]5(C)[C@H]4CC[C@]3(C)[C@H]2OC(C)=O)CCCC1 |  | Sprague Dawley rat, plasma | intravenous, dose not given, added: sugammadex 5 mg/kg |  | terminal half-life | 0.305 h |
| [O-][S+]1CCc2nc(N3CCC(c4ncc(Cl)cn4)CC3)nc(NC3(CO)CCC3)c21 (stereo not drawn) | measured: Dizziness | healthy male humans | 36 mg single dose |  | adverse event incidence | 16.7% |
| COc1cc2c(Oc3ccc4[nH]c(C)cc4c3F)ccnc2cc1OCC1(N)CC1 |  | paediatric recurrent refractory sarcoma | 8 mg |  | grade 3 Fever | 0% |
| CN(N=O)[C@H]1CC[C@@H](c2ccc(Cl)c(Cl)c2)c2ccccc21 |  | cell culture medium |  |  | precipitation concentration | 100 to 1000 µM |
| O=C(c1ccc(F)c(F)c1Nc1ccc(I)cc1F)N1CC(O)([C@@H]2CCCCN2)C1 |  | human | oral, 1.33 mg/kg |  | duration of first chorioretinopathy DLT | 8 days |
| CO[C@H]1C[C@@H]2CC[C@@H](C)[C@@](O)(O2)C(=O)C(=O)N2CCCC[C@H]2C(=O)O[C@H]([C@H](C)C[C@@H]2CC[C@@H](OC(=O)NCCOCCOCCOCCOCCOCCOCCOCCOCCC(=O)N3CCc4cc(Cn5nc(-c6ccc7oc(N)nc7c6)c6c(N)ncnc65)ccc4C3)[C@H](OC)C2)C[C@@H](O)[C@H](C)/C=C(\C)[C@@H](O)[C@@H](OC)C(=O)[C@H](C)C[C@H](C)/C=C/C=C/C=C/1C |  | patients with advanced solid tumours | intravenous, dose not given, any grade |  | incidence of Fatigue TRAE | 42.1% |
| CC(=O)c1c(C)c2cnc(Nc3ccc(C4CCN(CCS(C)(=O)=O)CC4)cn3)nc2n(C2CCCC2)c1=O |  | human, plasma | oral, 25 mg once daily, day 1, single dose |  | t1/2 | 6.1 h |

For quick reference, copied from above:
| SMILES | test | test system | setting | how to read | quantity | result |
| --- | --- | --- | --- | --- | --- | --- |
| [O-][S+]1CCc2nc(N3CCC(c4ncc(Cl)cn4)CC3)nc(NC3(CO)CCC3)c21 (stereo not drawn) | measured: Dizziness | healthy male humans | 36 mg single dose |  | adverse event incidence | 16.7% |
| COC[C@@H](CC(C)C)NC(=O)c1ccc(C)c(C)c1 |  | Hsd:ICR (CD-1) mouse, female, bone marrow | oral, 500 mg/kg, 24 h |  | micronucleated PCE per 1000 PCE | 0.5 |
| O=C1Nc2cc3[nH]nc(-c4ccncc4)c3cc2CN1Cc1ccccc1 | CTCAE v4.03 | advanced solid tumour patients | intravenous, 4.8 mg/kg, schedules 1/2 |  | patients with acneiform dermatitis | 25% |
